Published values pooled from the literature.
Parts stem from different laboratories: compare values within a part only.

Block 1 — technique: protein-binding microarray; form: double-stranded DNA, one strand shown; sample: in vitro; concentration: 2200 nM top; setting: 60-bp whole probe; together with: salmon DNA 0.4 mg/ml; relative to: random background probes; direction: higher = stronger binding; endpoint: fitted relative affinity; shared flanks, not repeated: GCCTAGCAC … GTCTTGATTCGCTTGACGCTGCTG
Target: Interferon regulatory factor 7, full length, phosphomimetic (IRF7, Homo sapiens, UniProt Q92985, residues 1-503, S471D/S472D/S475D/S476D/S477D/S483D/S484D/S487D)
Construct (chain): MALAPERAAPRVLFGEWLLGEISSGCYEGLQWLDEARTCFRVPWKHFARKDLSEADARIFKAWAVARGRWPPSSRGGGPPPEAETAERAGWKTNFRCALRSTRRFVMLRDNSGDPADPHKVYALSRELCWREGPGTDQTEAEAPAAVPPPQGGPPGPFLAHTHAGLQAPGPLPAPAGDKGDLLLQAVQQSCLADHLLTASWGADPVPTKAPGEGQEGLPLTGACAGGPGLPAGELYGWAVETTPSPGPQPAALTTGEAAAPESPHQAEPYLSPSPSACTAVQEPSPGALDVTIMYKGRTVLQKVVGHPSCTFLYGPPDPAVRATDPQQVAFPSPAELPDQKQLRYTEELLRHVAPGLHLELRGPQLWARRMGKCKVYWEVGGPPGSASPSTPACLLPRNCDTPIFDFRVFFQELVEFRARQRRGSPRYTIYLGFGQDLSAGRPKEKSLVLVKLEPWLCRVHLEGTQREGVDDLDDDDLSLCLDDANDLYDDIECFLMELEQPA
TCATTGTTCTCTCTGGCACTGTGCTAG: 1.59 z-score
TTAGATTTCGGGGTTCGATTAGTGCTA: 1.96 z-score
TTAGATATCGGTATCGATTAGTGCTAG: 0.305 z-score
GACTGTTTCCTTCTCCTGACGTGCTAG: 2.93 z-score
TTAGAACTGGTGACTGGATTAGTGCTA: -0.389 z-score
TCATCTCTGTTTTTGCTACTGTGCTAG: 2.2 z-score
GACGGCATCGGTATCGGGACGTGCTAG: -0.412 z-score
TTAGAACTGGGGCTTCGATTAGTGCTA: -0.312 z-score
TCAGTTTTCATTATTGTACTGTGCTAG: 2.85 z-score
GACGGTATCGGACCGGGGACGTGCTAG: -0.432 z-score
TTAGGACTGGACTTTCGGTTCGTGCTA: 10.3 z-score
TTAGGTAGCGACTATCGGTTAGTGCTA: -0.216 z-score
TTAGGCCTGCTTATCCTTTAGTGCTAG: 0.367 z-score
GAGGATATCAGTCTCGAGACGTGCTAG: 0.143 z-score
GACGATCTGAGTCTCGAGACGTGCTAG: -0.0803 z-score
TCATTTTTCTAATTTACACTGTGCTAG: 2.21 z-score
CTTAGAATAATTTTTTAGCTTGTGCTA: -0.873 z-score
TTAGGACTGGGGCATCGGTTAGTGCTA: -0.827 z-score
GTGGCCTTTGTTTCCAGGCAGTGCTAG: 0.351 z-score
AATCAACTTTTTTTAATTGAGTGCTAG: -0.404 z-score
ATCTTCATGAAGTTTTAATAAGTGCTA: -0.3 z-score
GACGGAATGCTACTGCTGACGTGCTAG: -0.198 z-score
TCAGTTTTCTCTCCCATACTGTGCTAG: 3.12 z-score
GACGATTCCAGTTTCCAGACGTGCTAG: 2.21 z-score
TTAGGTCTCCTTTTCATTTAGTGCTAG: 1.75 z-score

Block 2 — technique: RNAcompete; form: RNA; sample: in vitro; concentration: 20 nM; setting: 7-mer, probes averaged, single round; relative to: mean of 7-mers; direction: higher = stronger binding; endpoint: 7-mer Z-score
Target: PABPC1L2, full length, GST fusion (mouse, UniProt A0ABA7IW68)
Residues (chain): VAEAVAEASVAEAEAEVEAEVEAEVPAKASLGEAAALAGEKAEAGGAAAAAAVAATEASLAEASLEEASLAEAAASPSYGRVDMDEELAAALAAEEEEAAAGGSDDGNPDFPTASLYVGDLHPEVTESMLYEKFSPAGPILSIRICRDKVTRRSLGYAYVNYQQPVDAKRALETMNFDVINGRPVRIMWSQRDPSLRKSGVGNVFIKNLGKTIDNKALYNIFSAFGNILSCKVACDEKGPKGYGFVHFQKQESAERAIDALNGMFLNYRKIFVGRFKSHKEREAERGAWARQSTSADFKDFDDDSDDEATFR
CCUAUUU: -0.322
UCUCGCU: -0.492
GAGGUCU: -0.0844
AUAGGAA: -0.0319
GAGUACA: -0.0518
UAAAGAA: 1.72
UCGCUGC: -0.329
GGAACGC: -0.0627
GACCUGC: -0.262
GUUUGAC: -0.403
UCCGCGA: -0.291
UUGAGUG: -0.246
UCUCUAU: -0.364
UUGCAAU: -0.215
ACCCGCA: -0.168
AUUUGAA: -0.206
AUGACAC: -0.05
ACCCAAC: -0.277

Block 3 — technique: protein binding microarray; form: double-stranded DNA, one strand shown; sample: in vitro; concentration: not given; relative to: not given; direction: higher = stronger binding; endpoint: E-score
Target: Histone acetyltransferase KAT6A, winged helix 1, GST fusion (KAT6A, Homo sapiens, UniProt Q92794, residues 1-85)
Setting: 8-mer, flanks averaged, mean of 2 arrays, mostly near background
Residues (chain): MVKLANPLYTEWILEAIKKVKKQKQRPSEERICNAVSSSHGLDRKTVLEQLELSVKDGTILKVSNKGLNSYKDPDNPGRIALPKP
AAGGACAT: -0.0555
GGTGCCAC: -0.0375
CAGTTTTA: -0.184
CCACGTCA: -0.121
CCCGTATA: 0.271
TGCCCCAA: -0.182
CACTGTTA: -0.00651
GAGAGAAA: -0.25
GACCCAGC: -0.0748
AATAGTCG: 0.0491
ACTCGACA: -0.01
AACTGATA: -0.052
CCTCGGCA: 0.189
ACGGTATC: 0.148
GCAGCGTA: 0.111
AATAGCCG: 0.251
CACTATCA: -0.0675
AGTCTCAC: -0.0172
AGGGAACA: -0.188
GACAGTCC: -0.09
ACTCAAGG: -0.193
CTGCGAGC: 0.00836
ATGAGTCA: -0.191
AATACTGT: -0.134
AGTGCCAA: -0.228

Block 4 — technique: RNA Bind-n-Seq; form: RNA; sample: in vitro; concentration: 365 nM; relative to: no-protein control; direction: higher = stronger binding; endpoint: RBNS enrichment (R)
Target: RNA binding protein fox-1 homolog 2, RRM domain, GST-SBP tag (RBFOX2, Homo sapiens, UniProt O43251-10, residues 100-194)
Setting: natural RNA segment, single round, ends assumed
Shared flanks, not repeated: GGGAGUUCUACAGUCCGACGAUC … UGGAAUUCUCGGGUGCCAA
Target sequence (chain): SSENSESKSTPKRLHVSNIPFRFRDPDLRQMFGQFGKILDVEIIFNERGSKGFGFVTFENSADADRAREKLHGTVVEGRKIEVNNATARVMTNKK
AUUGGUAUUCAAAGCAAAACUGACAGUUUUCCCCUGUGUCAGGUUUUGCCAUCCCAAUCUUAAGACUGUCUCAUAAUUACCAUGUUGAGGGAAACGCCCCCAGACUCCUG: 0.469
GCCUCUUUCAUUGAAUGAGAAUUGCUUUCGUAUAGUUCACAUUAGAAAAAUGCCUAAUAUACUAAAGUAAACCAAACGUUGUCACUUUUCUCUUGUUCUUGAAACAUUGC: 0.322
UAGGUGUCUUUGUCAUCCUUCUACUAUAAAUUGUUCUUUGCCAACCUGUACAGGUAGAUGAACCAGGCGAGAGUUUUAAUCAGCCUUUUCUUGUCCCCUUUGUAAGAAAG: 0.435
CUGUCUCCAGGAAAACAAAGCAAACAAGGAUACCUAUGGAGACACGCUAAGAAGGAAUUACGCGAAUCGGCUCAAAAGUUAUGGUGGCCAAGAAGUGAUACAGGGUGUCA: 0.41
CACACCCUUUCCCUCACCUGUACUAGAGCUUGGCUUGAGGAAGGAAUGAAGGAGCAGCCUUCUGUUUACUAGAAAAAUGUUUGGGUUCACACGUGGUGCUGCUGCCCUGG: 0.465
UUUCAGACAUUCGCUCACGGACAAUACCAUCUCAGCUUUGCCCUUGCUCCGUGUGUCCACUCCUGCCCCCCUCCCCCAGGUUUUCCUGUUAUUUUCUUUCUCAGGGUCCU: 0.52
AUGGUACCCAAGUUCACAUUUUAUUUUUAUUUUUUAUCAAAUUCUUAGAAAGAGUCAUAAGAAAAAAAAAAAGACAUUUUAUUGUAAAUAACUUACAAGUGAAAUUAAGA: 0.508
CAGGCCUGGCCGUGAGCGGGGGCUGCCUGCACGCUCCCCUAGCCUACUCUUGUGUUUAGGGGAUGGUGGGAACAUAUCCCAGUGCCCUUGCCUCAUAAUAGAUGUGGUGA: 0.399
UGUGAAAUCCUACCACAUUCCAUGUCUGAAUUUUUGGAUUCGGGGUGGAUUUUCGUUGUCCGUGGAAGAACACAUGGAUCUCUCUGGCUUUCUCACCCAAGUUGGCCACU: 0.274
AUGGAGCCCUUCCCCCAGAAGGCUACUUCCUUGUUUUAGAGGAAGGUACUGCCCAUUGGGAGAUGGGGACAUUGGGACCUCAGCAAUGAAGAACCCUUGUGAAGUAACCA: 0.205
AAUUGGCAGGCUUUAGCCUACAAAUGGGUCCCCCAAGUUUUCUAGAUAACAUCCUGCUCUCUGCAGGUUGCGGCAGUGUGGGUUUGGCUCCAGUCCUUCCCAUUAUACUU: 0.247
AUUUUAAGUUUGCCUUAUCAGAUAUCUGAGCUGUGCGACAAGUAAGUAGCUCUGGGGCCAUGUCUUGACUGGCUCCUAAUGGUGACUCCAGGCCAGCACUUGGUCAUUUG: 0.263

Block 5 — technique: aptamer microarray, sandwich; form: DNA with 2'F-ANA; sample: in vitro; concentration: 200 nM; together with: Cy3 exosite-II aptamer, 400 nM; direction: higher = stronger binding; endpoint: mean fluorescence intensity; sequence: GGTTGGTGTGGTTGG
Target: Prothrombin, mature alpha-thrombin (F2, Homo sapiens, UniProt P00734)
Setting: whole 15-mer aptamer, many near background
2'F-ANA at 2 9 11 13 15: 304 a.u.
2'F-ANA at 4 6 10 15: 74.2 a.u.
2'F-ANA at 1 2 4 8 9 12 14: 73.4 a.u.
2'F-ANA at 1 2 4 5 6 7 8 12 13 15: 85.1 a.u.
2'F-ANA at 1 4 5 7 8 15: 67.3 a.u.
2'F-ANA at 1 3 4 8 9 10 14: 51.3 a.u.
2'F-ANA at 2 3 4 5 6 7 8 9 11 12 14 15: 62.8 a.u.
2'F-ANA at 2 3 8 9 10 12 13 14 15: 263 a.u.
2'F-ANA at 1 4 5 6 9 10 11 13 14 15: 62.2 a.u.
2'F-ANA at 7 8 9 11 12 14: 252 a.u.
2'F-ANA at 1 2 3 4 5 7 8 9 10 13 14 15: 136 a.u.
2'F-ANA at 3 4 7 8 11 12: 1040 a.u.
2'F-ANA at 1 2 5 7 8 9 10 13 14 15: 42.6 a.u.
2'F-ANA at 3 7 8 15: 1180 a.u.
2'F-ANA at 2 4 5 8 11 12 13: 82.4 a.u.
2'F-ANA at 1 2 4 6 9 13 14 15: 47.2 a.u.

Repeated from above (block 5):
2'F-ANA at 1 2 4 6 9 13 14 15: 47.2 a.u.
2'F-ANA at 1 3 4 8 9 10 14: 51.3 a.u.
2'F-ANA at 1 2 5 7 8 9 10 13 14 15: 42.6 a.u.
2'F-ANA at 1 4 5 7 8 15: 67.3 a.u.
2'F-ANA at 1 4 5 6 9 10 11 13 14 15: 62.2 a.u.
2'F-ANA at 2 4 5 8 11 12 13: 82.4 a.u.
2'F-ANA at 7 8 9 11 12 14: 252 a.u.
